Measured values from different studies.
Each line is one published result; not all experiments were run side by side. Numbers after ± are the reported error.
CYP3A4: Cytochrome P450 3A4 (CYP3A4, Homo sapiens, UniProt P08684)
Chain of UniProt P08684 (whole entry, looked up): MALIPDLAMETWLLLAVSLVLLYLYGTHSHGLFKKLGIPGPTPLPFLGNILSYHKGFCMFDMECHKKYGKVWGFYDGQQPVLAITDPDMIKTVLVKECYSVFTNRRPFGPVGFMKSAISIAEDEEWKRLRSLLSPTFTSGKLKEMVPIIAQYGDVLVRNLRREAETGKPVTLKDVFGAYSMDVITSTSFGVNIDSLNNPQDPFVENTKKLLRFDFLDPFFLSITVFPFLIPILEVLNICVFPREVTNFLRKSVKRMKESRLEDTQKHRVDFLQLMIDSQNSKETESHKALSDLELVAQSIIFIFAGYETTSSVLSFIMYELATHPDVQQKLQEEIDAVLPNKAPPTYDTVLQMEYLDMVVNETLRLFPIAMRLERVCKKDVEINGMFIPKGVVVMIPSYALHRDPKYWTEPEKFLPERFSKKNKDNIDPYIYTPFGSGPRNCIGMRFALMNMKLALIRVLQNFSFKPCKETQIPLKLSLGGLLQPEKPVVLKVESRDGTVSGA
SULT1A1: Sulfotransferase 1A1 (SULT1A1, Homo sapiens, UniProt P50225)
Chain of UniProt P50225 (whole entry, looked up): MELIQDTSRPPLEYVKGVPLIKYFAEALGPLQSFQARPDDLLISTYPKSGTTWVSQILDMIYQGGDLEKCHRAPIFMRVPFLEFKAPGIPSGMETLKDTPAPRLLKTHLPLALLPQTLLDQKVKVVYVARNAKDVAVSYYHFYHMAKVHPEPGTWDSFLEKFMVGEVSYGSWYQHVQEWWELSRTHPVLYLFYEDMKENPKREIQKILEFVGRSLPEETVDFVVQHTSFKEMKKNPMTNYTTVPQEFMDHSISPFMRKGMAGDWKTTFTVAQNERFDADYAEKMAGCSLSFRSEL
UGT1A9: UDP-glucuronosyltransferase 1A9 (UGT1A9, Homo sapiens, UniProt O60656)
Chain of UniProt O60656 (whole entry, looked up): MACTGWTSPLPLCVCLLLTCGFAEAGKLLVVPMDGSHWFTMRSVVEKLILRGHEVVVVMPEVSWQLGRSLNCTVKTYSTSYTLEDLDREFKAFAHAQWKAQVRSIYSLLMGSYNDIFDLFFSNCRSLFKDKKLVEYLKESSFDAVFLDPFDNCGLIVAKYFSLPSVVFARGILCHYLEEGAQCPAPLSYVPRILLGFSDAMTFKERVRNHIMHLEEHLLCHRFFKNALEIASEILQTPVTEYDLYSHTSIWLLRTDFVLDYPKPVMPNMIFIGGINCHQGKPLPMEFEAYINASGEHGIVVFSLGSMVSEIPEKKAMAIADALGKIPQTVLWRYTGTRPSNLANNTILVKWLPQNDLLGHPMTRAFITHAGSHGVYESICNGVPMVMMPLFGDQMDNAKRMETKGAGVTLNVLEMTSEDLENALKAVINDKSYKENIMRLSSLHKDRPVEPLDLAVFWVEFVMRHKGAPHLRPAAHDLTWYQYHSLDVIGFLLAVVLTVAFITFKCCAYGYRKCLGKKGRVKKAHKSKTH
Sortilin: Sortilin (Homo sapiens, UniProt Q99523)
Chain of UniProt Q99523 (whole entry, looked up): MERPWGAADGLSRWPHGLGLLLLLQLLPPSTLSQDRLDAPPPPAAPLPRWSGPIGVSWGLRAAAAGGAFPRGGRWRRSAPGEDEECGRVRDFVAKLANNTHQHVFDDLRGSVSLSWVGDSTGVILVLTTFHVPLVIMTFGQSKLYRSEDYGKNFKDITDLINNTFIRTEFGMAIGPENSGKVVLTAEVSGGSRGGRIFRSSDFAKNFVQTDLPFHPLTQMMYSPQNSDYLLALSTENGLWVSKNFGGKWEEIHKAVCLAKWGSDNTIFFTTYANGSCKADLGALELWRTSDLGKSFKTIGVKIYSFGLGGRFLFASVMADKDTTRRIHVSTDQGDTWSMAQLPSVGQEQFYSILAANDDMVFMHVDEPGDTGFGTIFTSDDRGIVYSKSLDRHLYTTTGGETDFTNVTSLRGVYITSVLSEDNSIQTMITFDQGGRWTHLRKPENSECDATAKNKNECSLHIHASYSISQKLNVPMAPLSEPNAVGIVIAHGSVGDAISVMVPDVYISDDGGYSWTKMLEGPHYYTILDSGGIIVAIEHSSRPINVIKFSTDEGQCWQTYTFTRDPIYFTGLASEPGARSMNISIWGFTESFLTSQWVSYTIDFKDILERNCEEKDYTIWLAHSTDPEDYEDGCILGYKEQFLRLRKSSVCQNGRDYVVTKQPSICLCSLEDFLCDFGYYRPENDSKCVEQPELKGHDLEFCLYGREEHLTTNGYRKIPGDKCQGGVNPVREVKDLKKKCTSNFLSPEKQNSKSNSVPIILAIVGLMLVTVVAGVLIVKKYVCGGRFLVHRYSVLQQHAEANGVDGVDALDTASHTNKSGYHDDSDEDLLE
Chain of UniProt P08183 (whole entry, looked up): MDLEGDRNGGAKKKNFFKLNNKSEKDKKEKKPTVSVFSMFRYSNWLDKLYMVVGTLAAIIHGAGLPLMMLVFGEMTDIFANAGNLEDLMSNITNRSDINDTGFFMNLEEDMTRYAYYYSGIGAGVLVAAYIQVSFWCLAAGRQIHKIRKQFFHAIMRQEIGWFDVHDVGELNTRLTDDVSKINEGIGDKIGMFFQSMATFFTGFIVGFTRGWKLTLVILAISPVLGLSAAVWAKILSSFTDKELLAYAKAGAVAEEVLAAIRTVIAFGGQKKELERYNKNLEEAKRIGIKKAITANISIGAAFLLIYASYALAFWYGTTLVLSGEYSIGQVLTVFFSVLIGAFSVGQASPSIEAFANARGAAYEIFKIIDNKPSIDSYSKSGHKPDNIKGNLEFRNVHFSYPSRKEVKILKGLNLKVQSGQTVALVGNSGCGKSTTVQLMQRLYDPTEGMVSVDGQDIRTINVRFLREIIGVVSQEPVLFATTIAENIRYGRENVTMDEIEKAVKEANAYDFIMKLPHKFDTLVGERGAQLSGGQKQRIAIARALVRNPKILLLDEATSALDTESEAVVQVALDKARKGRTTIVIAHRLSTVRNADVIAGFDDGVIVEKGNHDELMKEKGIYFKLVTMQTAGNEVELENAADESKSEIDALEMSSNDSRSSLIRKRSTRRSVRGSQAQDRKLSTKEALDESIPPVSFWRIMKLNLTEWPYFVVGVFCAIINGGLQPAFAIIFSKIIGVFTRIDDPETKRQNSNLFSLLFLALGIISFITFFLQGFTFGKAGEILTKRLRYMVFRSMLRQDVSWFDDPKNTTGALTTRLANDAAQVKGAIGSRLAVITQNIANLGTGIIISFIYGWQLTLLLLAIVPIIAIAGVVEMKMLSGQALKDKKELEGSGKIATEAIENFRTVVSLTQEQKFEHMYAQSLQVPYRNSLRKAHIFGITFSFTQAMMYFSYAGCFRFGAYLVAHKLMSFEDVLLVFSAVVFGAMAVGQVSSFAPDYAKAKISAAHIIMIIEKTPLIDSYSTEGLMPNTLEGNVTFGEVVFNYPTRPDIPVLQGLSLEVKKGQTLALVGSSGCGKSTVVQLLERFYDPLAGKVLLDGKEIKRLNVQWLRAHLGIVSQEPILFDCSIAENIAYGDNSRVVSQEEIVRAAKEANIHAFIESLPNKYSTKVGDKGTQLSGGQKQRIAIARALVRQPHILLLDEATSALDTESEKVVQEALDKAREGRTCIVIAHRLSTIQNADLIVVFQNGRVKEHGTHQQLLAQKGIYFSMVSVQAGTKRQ
Chain of UniProt Q12809 (whole entry, looked up): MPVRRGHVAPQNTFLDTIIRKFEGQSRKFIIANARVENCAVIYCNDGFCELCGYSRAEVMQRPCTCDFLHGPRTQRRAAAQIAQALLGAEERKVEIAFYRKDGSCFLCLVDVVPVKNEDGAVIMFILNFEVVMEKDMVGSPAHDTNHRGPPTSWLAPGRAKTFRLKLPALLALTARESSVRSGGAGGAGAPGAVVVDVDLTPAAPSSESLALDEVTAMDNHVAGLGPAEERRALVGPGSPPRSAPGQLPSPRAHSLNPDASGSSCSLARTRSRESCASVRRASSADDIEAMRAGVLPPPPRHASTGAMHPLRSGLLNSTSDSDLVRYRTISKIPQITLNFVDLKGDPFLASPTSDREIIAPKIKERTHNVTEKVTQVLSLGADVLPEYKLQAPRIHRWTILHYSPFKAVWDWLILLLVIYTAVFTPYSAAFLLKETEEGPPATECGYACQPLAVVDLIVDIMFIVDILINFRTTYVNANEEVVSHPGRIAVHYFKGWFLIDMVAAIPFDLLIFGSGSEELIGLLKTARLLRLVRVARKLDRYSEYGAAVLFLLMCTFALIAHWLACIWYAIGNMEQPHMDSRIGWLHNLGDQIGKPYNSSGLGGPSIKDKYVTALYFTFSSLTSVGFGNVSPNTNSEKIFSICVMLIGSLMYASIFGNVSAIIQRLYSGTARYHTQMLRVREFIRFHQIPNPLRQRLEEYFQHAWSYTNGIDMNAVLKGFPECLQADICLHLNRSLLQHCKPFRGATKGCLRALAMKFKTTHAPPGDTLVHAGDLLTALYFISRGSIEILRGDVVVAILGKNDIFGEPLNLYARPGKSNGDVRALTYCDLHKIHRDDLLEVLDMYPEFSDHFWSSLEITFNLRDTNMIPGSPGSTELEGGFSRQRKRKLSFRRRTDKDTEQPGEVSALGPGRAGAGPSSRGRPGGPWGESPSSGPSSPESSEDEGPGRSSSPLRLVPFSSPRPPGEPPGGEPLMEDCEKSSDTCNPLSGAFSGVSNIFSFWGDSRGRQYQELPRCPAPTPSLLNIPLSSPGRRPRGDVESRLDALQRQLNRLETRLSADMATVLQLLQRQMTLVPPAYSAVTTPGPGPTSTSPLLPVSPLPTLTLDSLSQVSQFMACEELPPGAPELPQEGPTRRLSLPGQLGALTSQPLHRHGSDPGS
Chain of UniProt O75897 (whole entry, looked up): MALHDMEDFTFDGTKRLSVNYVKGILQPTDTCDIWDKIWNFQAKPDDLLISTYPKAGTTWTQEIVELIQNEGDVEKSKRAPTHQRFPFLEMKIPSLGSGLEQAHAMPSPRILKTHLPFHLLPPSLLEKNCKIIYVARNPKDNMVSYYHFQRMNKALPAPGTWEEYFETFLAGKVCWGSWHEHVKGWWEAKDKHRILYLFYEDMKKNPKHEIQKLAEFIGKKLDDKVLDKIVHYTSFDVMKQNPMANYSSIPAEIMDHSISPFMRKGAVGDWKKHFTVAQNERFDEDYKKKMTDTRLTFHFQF

With `CC[C@H]1[C@@H](O)[C@@H]2[C@H](CC[C@]3(C)[C@@H]([C@H](C)CCNC(=O)NS(=O)(=O)c4ccc(C(C)(C)C)cc4)CC[C@@H]23)[C@@]2(C)CC[C@@H](O)C[C@@H]12` the Vd/F was 216 L (ABCB1 (Homo sapiens, UniProt P08183); human, plasma; dose not given, geometric mean, alone).
`CCC(=O)NCC[C@@H]1CCc2cc(O)c3c(c21)CCO3` has a specific activity of 0.27 ± 0.01 nmol/min/mg (SULT1C4 (Homo sapiens, UniProt O75897); substrate, sulfation, purified enzyme; 10 µM, 10 min, pH 7.0, 37 °C).
The Cmax of `C=CC(=O)N1C[C@H](Nc2ncnc3[nH]ccc23)CC[C@@H]1C` is reported as 156 ng/mL (CYP3A; substrate; human, plasma; oral, single dose, with: itraconazole multiple doses).
The fu,inc of `COc1ccc(F)cc1C(=O)NCc1ccc(-c2nn([C@@H](C)C(F)(F)F)c(N)c2C(N)=O)cc1` is reported as 0.777 (CYP3A4; human liver microsomes, 0.5 mg/mL; TDI incubation).
`C[C@]12C[C@H](O)[C@H]3[C@@H](CCC4=CC(=O)CC[C@@]43C)[C@@H]1CC[C@@H]2C(=O)CO` — result for “18-hydroxylation coupling efficiency”: 35 ± 4.8% (CYP11B2 (Homo sapiens, UniProt P19099); substrate; 100 µM, phospholipid vesicles).
The specific activity of `COc1cc2c(CCNC(C)=O)c[nH]c2cc1O` is reported as 25.1 ± 0.53 nmol/min/mg (SULT1A1; substrate, sulfation, purified enzyme; 10 µM, 10 min, pH 7.0, 37 °C).
`O=C(O)COc1cccc(-c2nc(Nc3ccc4[nH]ncc4c3)c3ccccc3n2)c1` has an IC50 of 11.2 µM (UGT1A9; enzyme activity, inhibitor; with: niflumic acid).
The selectivity index of `C=C1CN(S(=O)(=O)c2ccc(C)cc2)CCCN(CCc2ccccc2)CCCN(S(=O)(=O)c2ccc(C)cc2)C1.Cl` is reported as over 50 (Sortilin; HEK-293T; reference: CC50 over IC50).
`Cc1cc(Nc2ncnc3ccc(NC4=NC(C)(CO)CO4)cc23)ccc1Oc1ccn2ncnc2c1` (stereo not shown): “Cmax (geometric mean)” 61.7 ng/mL (CYP3A4; human, plasma; oral, 300 mg tucatinib single dose, day 1, tucatinib alone).
`Cc1oc2ccccc2c1Cc1cc(I)c(OCC(=O)O)c(I)c1` — result for “outward current block”: 23 ± 5% (KCNH2 (Homo sapiens, UniProt Q12809); ion current, whole-cell patch clamp; HEK293 expressing hERG1; 10 µM, K+ 10 mM, at +40 mV before repolarization).
With `CC(C)=CCc1cc2c(cc1O)O[C@H](c1ccc(O)cc1)CC2=O` the CLint was 784 µL/min/mg (UGT1A9; glucuronidation, substrate; recombinant enzyme; pH 7.4).
For `CC(=O)NCCc1c[nH]c2ccc(O)cc12`, the specific activity was 2.86 ± 0.01 nmol/min/mg (SULT1A1; substrate, sulfation, purified enzyme; 10 µM, 10 min, pH 7.0, 37 °C).
`C=C1CN(S(=O)(=O)c2ccc(N(C)C)cc2)CCCN(CC2CCCCC2)CCCN(S(=O)(=O)c2cccc3ccccc23)C1.Cl` gave a selectivity index of at least 26 (Sortilin; HEK-293T; reference: CC50 over IC50).

A few entries again:
`C=C1CN(S(=O)(=O)c2ccc(N(C)C)cc2)CCCN(CC2CCCCC2)CCCN(S(=O)(=O)c2cccc3ccccc23)C1.Cl` gave a selectivity index of at least 26 (Sortilin; HEK-293T; reference: CC50 over IC50).
